Experimental data pooled from the literature.
Numbered parts are unrelated; each lists some results of a single study.
UniProt P08047, sequence (whole entry, looked up): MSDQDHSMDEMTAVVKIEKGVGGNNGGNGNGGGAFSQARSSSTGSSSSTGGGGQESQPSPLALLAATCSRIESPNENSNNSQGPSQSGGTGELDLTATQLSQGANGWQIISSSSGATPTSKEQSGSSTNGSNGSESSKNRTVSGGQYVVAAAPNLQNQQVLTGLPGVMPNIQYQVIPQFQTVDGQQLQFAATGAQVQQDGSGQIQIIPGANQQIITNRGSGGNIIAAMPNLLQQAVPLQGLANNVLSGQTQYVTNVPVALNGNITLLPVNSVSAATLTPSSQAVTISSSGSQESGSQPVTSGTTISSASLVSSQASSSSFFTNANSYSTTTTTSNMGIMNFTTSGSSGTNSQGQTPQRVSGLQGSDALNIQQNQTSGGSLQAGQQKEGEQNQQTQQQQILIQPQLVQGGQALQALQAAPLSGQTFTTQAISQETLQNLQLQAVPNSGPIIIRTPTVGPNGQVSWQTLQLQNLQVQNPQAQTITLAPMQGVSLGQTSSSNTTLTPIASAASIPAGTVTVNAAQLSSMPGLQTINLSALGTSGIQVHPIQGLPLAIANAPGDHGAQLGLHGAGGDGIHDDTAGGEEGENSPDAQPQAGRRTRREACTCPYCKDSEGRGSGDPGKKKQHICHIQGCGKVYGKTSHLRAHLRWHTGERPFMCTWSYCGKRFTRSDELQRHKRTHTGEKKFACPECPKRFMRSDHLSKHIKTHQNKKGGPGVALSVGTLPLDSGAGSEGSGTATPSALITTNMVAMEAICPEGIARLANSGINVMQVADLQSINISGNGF

Study 1
Target: Histone acetyltransferase KAT6A, both winged helices, GST fusion (KAT6A, Homo sapiens, UniProt Q92794, residues 1-181)
Method: protein binding microarray
Molecule type: double-stranded DNA, one strand shown
Medium: in vitro
Concentration: not given
Notes: 8-mer, flanks averaged, mean of 2 arrays, mostly near background
Relative to: not given
Direction: higher = stronger binding
Endpoint: E-score
Residues (chain): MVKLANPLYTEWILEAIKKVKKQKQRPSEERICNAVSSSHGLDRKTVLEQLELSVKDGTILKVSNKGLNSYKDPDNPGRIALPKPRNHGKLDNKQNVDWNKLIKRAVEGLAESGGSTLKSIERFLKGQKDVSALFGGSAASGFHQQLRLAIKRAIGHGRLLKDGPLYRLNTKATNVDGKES
CGAAACTC: -0.0592
AGTAAACT: -0.00553
CAAAAGTA: -0.117
AGCTTTTG: -0.116

Study 2
Target: Sal-like protein 4, full length isoform B (SALL4, Homo sapiens, UniProt Q9UJQ4-2, residues 1-616)
Method: universal PBM
Molecule type: double-stranded DNA, one strand shown
Medium: in vitro
Concentration: not given
Notes: 8-mer, flanks averaged, mean of replicates
Direction: higher = stronger binding
Endpoint: E-score
GATCAGCA: -0.102
GACCGAGA: -0.0694
CCCTGTAG: -0.138

Single results of other studies
ATGATACA — E-score (Transcription factor Sp1 (SP1, Homo sapiens, UniProt P08047, residues 1-785, full length assumed); protein-binding microarray; double-stranded DNA, one strand shown, in vitro; not given, k-mer, scored over probes, only values ≥0.25; higher = stronger binding): 0.251
PhoQ, residues 284 288 289 292 302 303 SASVAL — fold induction (PhoP, residues 12 14 15 18 19 FWNTL (Escherichia coli, UniProt P23836); Sort-seq, refers to: YFP reporter; E. coli; PhoQ-PhoP variant library, together with: 10 µM Mg2+; relative to: high Mg2+ state, higher = stronger signaling): 0.527

Excerpt of the above (study 1):
CGAAACTC: -0.0592
